Experimental data from different studies.
Every numbered part comes from another study and shows a few of its results, in no order. Positions count from the first letter of the parent shown.

Set 1 — method: RNA Bind-n-Seq; molecule type: RNA; matrix: in vitro; concentration: 20 nM; setting: 6-mer, flanks averaged, single round; added: 150 mM KCl; baseline: input library; direction: higher = stronger binding
Target: TAR DNA-binding protein 43, full length, His tag (TARDBP, Homo sapiens, UniProt Q13148, residues 1-414)
| Strand | 6-mer enrichment (R) |
| --- | --- |
| GUGAGC | 1.39 |
| UUCCAA | 0.577 |
| CAUGGU | 0.825 |
| UCUGGG | 1.81 |
| ACUCUG | 0.624 |
| AGGAAU | 0.823 |
| AAUGUC | 0.629 |
| CCGUAG | 0.793 |

Set 2 — method: RNA Bind-n-Seq; molecule type: RNA; matrix: in vitro; concentration: not given; baseline: input RNA pool; direction: higher = stronger binding
Target: RING finger protein unkempt homolog, zinc fingers 1-6, GST-SBP tag (UNK, Homo sapiens, UniProt Q9C0B0, residues 30-357)
Setting: RNA with constant flanks, human-mouse chimeric sites, ends assumed
All sequences stand within: GGGAGUUCUACAGUCCGACGAUC … CAACAGAGGAUUGAGCAUCA
Construct (chain): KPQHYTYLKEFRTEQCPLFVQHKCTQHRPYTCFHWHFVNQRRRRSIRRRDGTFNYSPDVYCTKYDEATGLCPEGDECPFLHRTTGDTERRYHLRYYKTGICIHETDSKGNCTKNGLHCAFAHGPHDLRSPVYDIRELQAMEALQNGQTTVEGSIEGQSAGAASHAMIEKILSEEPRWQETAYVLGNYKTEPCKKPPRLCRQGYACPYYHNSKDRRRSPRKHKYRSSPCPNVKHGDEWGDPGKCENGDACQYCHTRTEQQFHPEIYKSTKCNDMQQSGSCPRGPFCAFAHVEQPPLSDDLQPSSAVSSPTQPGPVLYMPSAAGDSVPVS
| Strand | bound/input enrichment [ratio] |
| --- | --- |
| CGCAGAAGGUUAAAGGGUGAGAGUGGGGUGGAAGACUGUGUCAUGGCUCUGGAGACACUGUUCAGUGUCCUGCUUUCUCUUUGCAGACUGAUGGCCCCUUACACGCCCUUUCUGACUGAG | 0.0967 |
| CACACACUCUUCUGUGGGACCCUCAUCUUGCAGGCCCGGGCCUAUGUGGGACCGCACGUCCUGGCAGUGGUGACCCGCACAGGGUUCUGCACGGCAAAAGGGGGCCUGGUGAGCUCCAUC | 0.0502 |
| GGAAUUGCUGAUUCAAGUAAGUUUGAGUAUCACAAUGUUAGCUUUCUAAUUCCAUAAAAGUACUUGGUUUUUACAGUUUAUAAUCUGACAUCACCCCAGCGCCAUUUAGAUCAGCUUACU | 0.786 |
| UCGGAUGCUGUGCUGGGUCACUUUUCAUAUCCAGAUCCUUCACAGUGGACAGAUGAAGAACUGGGAAUCCCUCCUGAUGACGAGGACUGAAGGUGUAAACUCUCUGGACGAGUAGGAGCA | 0.445 |
| GAGUCGAGCAAACUUGAAACAAUUCGUUAUCUUGCAGCCUCAGUGUUUUUACUUGCCGCGAUAGCAUUGGGGUUUUAUAGGUUCUGGAAGGAGAACUGACGAUGAUGUCCUGCUGUGUGC | 0.17 |
| GUUCGGCUCUGGGAUCAUGCCACAAUGACAGAAGUGAAAUCUCUGAAUUUUAAUAUGUCUGUUAGUAGCAUGGAGUAUAUUCCUGAAGGAGAGAUUUUGGUUAUUACUUAUGGACGAUCU | 0.348 |
| CUUAAUGUUAAUAUUUUUGAAUAAAUGAAGCUAAAAUGUCUGCUUUUGGUACAACACGCAUUAAUAAAAGGUUAAGUUUUGUUUUCCCUCCACUGAAGUAAUACUUACUCAGAAAAAAAC | 0.114 |
| UACUACUGAAUCUGUGAUAUUGGCAAUUAUUAUUAUGGACAGGGUCAUCCCAUGAAGCCUCAUAGAAUCCGGAUGACUCAUAACUUGCUGCUAAAUUAUGGUUUAUACCGAAAAAUGGAA | 0.236 |

Set 3 — method: protein-binding microarray; molecule type: double-stranded DNA, one strand shown; matrix: in vitro; concentration: 0.8 µM; setting: whole 60-bp probe, no competitor; direction: higher = stronger binding; all sequences stand within: … GTCTTGATTCGCTTGACGCTGCTG
Target: Centromere-binding protein 1, full length, N-terminal tag (CBF1, Saccharomyces cerevisiae, UniProt P17106, residues 1-351)
Sequence of UniProt P17106 (whole entry, looked up): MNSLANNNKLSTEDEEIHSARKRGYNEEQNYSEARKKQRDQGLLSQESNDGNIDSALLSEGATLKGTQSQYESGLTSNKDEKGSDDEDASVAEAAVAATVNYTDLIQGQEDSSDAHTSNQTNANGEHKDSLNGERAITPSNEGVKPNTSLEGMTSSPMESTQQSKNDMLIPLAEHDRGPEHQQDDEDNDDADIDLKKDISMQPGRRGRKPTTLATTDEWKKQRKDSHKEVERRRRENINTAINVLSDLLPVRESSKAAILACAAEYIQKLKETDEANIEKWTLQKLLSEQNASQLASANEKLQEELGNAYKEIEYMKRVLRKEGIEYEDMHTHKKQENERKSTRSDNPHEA
| Strand | fluorescence intensity [a.u.] |
| --- | --- |
| GAAATTTCCAACTTACACATGGAGCCGTTGTATTAG | 520 |
| CTAATAAATGTGCGTCACGTGGCCTTGTGTCTCTTC | 14700 |
| GAACATTTTATACATGACGGCCTCTAGTAATATTAG | 538 |
| GAATTACAGATTTGTCACGTGATCAATATCACCTAG | 50700 |
| CTAGAAAGAATGCTCAACGTGAGTATGATAACCTTC | 579 |
| GAATTCTTTCTTGGTGACATGAAAATAATAATATAG | 534 |
| GAAGGCCTCGTGGCGCACATGGTACGCTGTGGTTAG | 731 |
| GAAAAACTAAAAAAAAACGTGCTTACCTTGTGATAG | 921 |

Other studies, line by line — parent: viral docking peptide; TSVRRALFTGGSD
| Variant | target | assay | test system | conditions | how to read | quantity | result |
| --- | --- | --- | --- | --- | --- | --- | --- |
| R4L | CCNF, cyclin fold, Cln2 fusion (human) | yeast growth competition, sequencing | yeast | strong parent motif | baseline: not given, higher = stronger binding | normalised enrichment score | 1.86 |

A few entries again (other studies, line by line):
| Variant | target | assay | test system | conditions | how to read | quantity | result |
| --- | --- | --- | --- | --- | --- | --- | --- |
| R4L | CCNF, cyclin fold, Cln2 fusion (human) | yeast growth competition, sequencing | yeast | strong parent motif | baseline: not given, higher = stronger binding | normalised enrichment score | 1.86 |
